Results gathered from unrelated publications.
Every numbered part comes from another study and shows a few of its results, in no order.

Block 1 — technique: RNA Bind-n-Seq; molecule type: RNA; matrix: in vitro; concentration: 365 nM; baseline: no-protein control; direction: higher = stronger binding
Target: RNA binding protein fox-1 homolog 2, RRM domain, GST-SBP tag (RBFOX2, Homo sapiens, UniProt O43251-10, residues 100-194)
Setting: natural RNA segment, single round, ends assumed
All sequences stand within: GGGAGUUCUACAGUCCGACGAUC … UGGAAUUCUCGGGUGCCAA
Construct (chain): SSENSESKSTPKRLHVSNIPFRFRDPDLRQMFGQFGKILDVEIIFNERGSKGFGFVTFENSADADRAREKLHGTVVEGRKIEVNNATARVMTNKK
Sequence | RBNS enrichment (R)
ACGGAGAGGACAGUUCUUAGUCCAGUAAAAAUAUGCAGAUUGUAUGUAAUGAAUUUUUGUAAACAAAGGUAAUUUCUGUCAAAUGUAUUCUUUACUUUUUUAAUAUGUUG | 0.853
AAAGAAAGGAUACAGGGGAAGUGGACCUGUUUAGAAAUGGUUCUUUGGAGCAGAUCCUGUCUGCAUUAUCAGGAAACCAGCAAUUCAGUUCACGGGUCAGCAGUGGCAGC | 0.526
UCCUAAGAGGAUAAAUUAUGUAACUGAUUUGCCCAGCUGAAUCAGGACUGCAAAUGCCAGGCUUUCCUUGGCCAUGUAUCUAAAAUCCCAUAAACUCCUCCCUUUGGGAG | 0.307
AGUUACACACUCAGUAAACACUGGUUAUCAGUCAUUGGAAAGGUUACCUGUGCAACCACCAGAUUCCAUUUCUACUUCUCUUCCCCAGAGGUCUCAGCAAUGAAUCGGGA | 0.291
CACUGCAGCCGGGAGCCUCUGCUGUCCUUCCCAGCCGCCUCUGCUCCUCGGGCUCAUCACCGGUUCUGUGCCUGUGCUCUGUUGUGUUGGAGGGAAGGACUGGCGGUUCU | 3.22
UUAAAGAAGUGUAUGUUUUCUGAAAGCAAAAGAAUAAAGGAAGGCCCGUCAUUCAGAGACCACUGUGAACAUUUGGAUGUAGAUGCUGUUCUCCCUAACUCUUUGUUCCA | 2.04
UCCUCCUGUCCCCUAACCUCCACCUACCACCAUCCUCCCUCUCAGUUCUCUCCCAUCCUUGCCCCUGGUUCAGGAGCCAUUCUACCUGCCUCAGUGGCCAGGCGCAAGGC | 0.92
UUUGGAAUAUUUUAUCCUGUAUUCUUGUUUGAAUCCUUCCUCUAUUUAAGACAUAGCCAUGGAGCCCACAUGUUUAUGGAAUAGUCUACCCUUUGCCUGCAGGUCAGUUG | 1.81

Block 2 — technique: RNA Bind-n-Seq; molecule type: RNA; matrix: in vitro; concentration: 200 nM; setting: whole 134-nt RNA, ends assumed; added: 150 mM KCl; baseline: input library; direction: higher = stronger binding
Target: Fragile X messenger ribonucleoprotein 1, C-terminal low-complexity region (Fmr1, Mus musculus, UniProt P35922)
All sequences stand within: GGGAGUUCUACAGUCCGACGAUC … UGGAAUUCUCGGGUGUCAAGG
Sequence | log2 enrichment
UGGCCCUGGUGGCAUGCGGGGAGGAAGAGGUGGCCUCAUGGAUCGUGGUGGUCCCGGCGGAAUGUUCAGAGGUGGCCGUGGUGGAGACAG | -0.121
UAACUUUAGAGGAGGAUCUGAUGGAUAUGGCAGUGGACGUGGAUUUGGGUAUGGCUAUAAUGGGUAUGGAGGAGGACCUGGAGGUGGCAA | 0.15
UGGGAGGUGGAUUUUGUUUAUUUUUUUAGCUCAUUUCCAGGGGUGGGAAUUUUUUUUUAAUAUGUGUCAUGAAUUAAGUUGUUUUUGAAA | 0.39
AGUCCUGUGCUACACAUCGUAUGUACCGAAUCGGUUUUUGGGUUUUUGGUUUUUGGGAAAGUAUUAUGUUACGCCGUUCGGAUCUGCACU | -0.751
AUUCUAUAAAUGGCAAGUAAGCCUGAAGUGAGGAUACUGCAAUUUUCGGAGAAAAGAACAGCAGCUCUUUAAGUGUUUGCAUUUUCUAUU | -1.22
CAAGUCCUGUGCUACACAUCGUAUGUACCGAAUCGGGUUUGGGGUUUGGUUUGGGGAAAGUAUUAUGUUACGCCGUUCGGAUCUGCACUU | 0.433
CACAGACAACACGCACCCACACAGACACAGAGGGAAGGGGUUGGGAAAGGGACAGGGUGCACAGCAGGGCGGGGUAGGACCCCAGCCCCU | 1.01
CACAGACAACACGCACCCACACAGACACAGAGGGAAGGGGUAGGGAUGGGGACAGGGUGCACAGCAGGGCGGGGUAGGACCCCAGCCCCU | 1.14
AGUCCUGUGCUACACAUCGUAUGUACCGAAUCGGGGAAAAGGAAAAGGGGAAAAGGGGAAAGUAUUAUGUUACGCCGUUCGGAUCUGCAC | 0.185

Block 3 — technique: protein binding microarray; molecule type: double-stranded DNA, one strand shown; matrix: in vitro; concentration: not given; baseline: not given; direction: higher = stronger binding
Target: Histone acetyltransferase KAT6A, both winged helices, GST fusion (KAT6A, Homo sapiens, UniProt Q92794, residues 1-181)
Setting: 8-mer, flanks averaged, mean of 2 arrays, mostly near background
Residues (chain): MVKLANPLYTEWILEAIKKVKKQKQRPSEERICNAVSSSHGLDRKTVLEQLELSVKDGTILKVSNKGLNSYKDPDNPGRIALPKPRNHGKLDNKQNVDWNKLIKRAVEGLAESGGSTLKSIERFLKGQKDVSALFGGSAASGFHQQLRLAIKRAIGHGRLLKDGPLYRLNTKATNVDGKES
Sequence | E-score
AATGGGCG | 0.00393
GGCAATTA | -0.0493
GAATCGGA | 0.0709
ACAACCGA | -0.0202
TAAGTGGA | -0.142
ACCCCCGC | 0.19
ATTTGTCA | -0.203
CGCACGCC | 0.256
GAGAATTA | -0.278
CCTCTACA | -0.169
ACCTTGCG | 0.0862
ATGAGTAG | -0.0668
AACGCACC | 0.137
AGCTGCTG | -0.204
CTTTCTAA | -0.0208
GAGCAGCC | -0.0619
CTATCCGA | -0.0696
ATGCGTGA | 0.0994
CCAGCAGA | -0.114
ATGAGAAA | -0.127

Block 4 — technique: universal PBM; molecule type: double-stranded DNA, one strand shown; matrix: in vitro; concentration: 600 nM; direction: higher = stronger binding
Target: Sal-like protein 4, full length isoform A (SALL4, Homo sapiens, UniProt Q9UJQ4, residues 1-1053)
Chain of UniProt Q9UJQ4 (whole entry, looked up): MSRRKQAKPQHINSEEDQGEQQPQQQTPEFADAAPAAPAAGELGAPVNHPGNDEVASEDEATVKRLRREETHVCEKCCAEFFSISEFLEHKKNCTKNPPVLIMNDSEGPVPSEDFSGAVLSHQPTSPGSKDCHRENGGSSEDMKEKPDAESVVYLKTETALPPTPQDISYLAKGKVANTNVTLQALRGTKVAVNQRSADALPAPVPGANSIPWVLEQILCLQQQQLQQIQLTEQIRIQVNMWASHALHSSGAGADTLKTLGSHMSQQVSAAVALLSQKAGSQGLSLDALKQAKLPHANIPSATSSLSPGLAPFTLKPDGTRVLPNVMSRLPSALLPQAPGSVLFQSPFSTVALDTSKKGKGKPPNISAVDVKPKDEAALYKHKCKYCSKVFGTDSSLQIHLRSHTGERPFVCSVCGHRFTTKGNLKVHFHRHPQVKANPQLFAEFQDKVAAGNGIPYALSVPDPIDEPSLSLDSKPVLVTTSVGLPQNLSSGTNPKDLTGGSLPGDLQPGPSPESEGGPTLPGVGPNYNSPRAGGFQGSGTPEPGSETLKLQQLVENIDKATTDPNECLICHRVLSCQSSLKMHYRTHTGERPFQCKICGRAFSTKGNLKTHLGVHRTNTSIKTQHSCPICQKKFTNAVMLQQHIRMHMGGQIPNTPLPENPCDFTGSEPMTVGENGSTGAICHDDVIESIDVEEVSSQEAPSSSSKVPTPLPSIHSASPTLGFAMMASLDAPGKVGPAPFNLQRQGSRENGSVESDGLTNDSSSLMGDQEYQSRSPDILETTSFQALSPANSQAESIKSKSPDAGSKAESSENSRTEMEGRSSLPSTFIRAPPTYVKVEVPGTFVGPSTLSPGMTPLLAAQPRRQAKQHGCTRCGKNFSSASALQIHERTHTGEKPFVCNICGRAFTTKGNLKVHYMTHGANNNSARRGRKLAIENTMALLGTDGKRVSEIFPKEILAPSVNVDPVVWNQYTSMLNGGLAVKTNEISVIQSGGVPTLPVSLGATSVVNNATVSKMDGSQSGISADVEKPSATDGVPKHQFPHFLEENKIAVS
Setting: 8-mer, flanks averaged, mean of replicates
Sequence | E-score
ACGGCTAA | -0.0381
ATTTGTTA | 0.272
CCCCGGCA | -0.264
ATAGAGTC | -0.0324
AGGCGCGA | -0.184
CCCAGTCG | -0.3
CACCATCA | 0.00741
ACACATAG | 0.129
CCAGGCCA | -0.346
ATTGTGAA | 0.264
CAAACGTG | 0.0553
AGACGGAT | -0.0101
TAAAGCAA | 0.205
CCACTTAC | -0.0359
AGCGACGC | -0.204
CCGAGGGA | -0.364
ATTATCGA | 0.238
AATTGTGT | 0.11
GCCCGATA | -0.0612
CCACTTGC | -0.145
AGTGTGAG | 0.0639
ACACTGAC | -0.0189
AAGGGCTG | -0.234
GCTACTTA | 0.0555

Excerpt of the above (block 4):
Sequence | E-score
CCCCGGCA | -0.264
CCACTTGC | -0.145
GCCCGATA | -0.0612
ATAGAGTC | -0.0324
ACACATAG | 0.129
ATTTGTTA | 0.272
CAAACGTG | 0.0553
ACGGCTAA | -0.0381
AGCGACGC | -0.204
